{"data": "Experimental data collected from several papers", "note": "Numbered parts are unrelated; each lists some results of a single study. Values joined by “and” are separate records of one study, mostly repeats; a detail may differ.", "chain of UniProt Q9UK32 (whole entry, looked up)": "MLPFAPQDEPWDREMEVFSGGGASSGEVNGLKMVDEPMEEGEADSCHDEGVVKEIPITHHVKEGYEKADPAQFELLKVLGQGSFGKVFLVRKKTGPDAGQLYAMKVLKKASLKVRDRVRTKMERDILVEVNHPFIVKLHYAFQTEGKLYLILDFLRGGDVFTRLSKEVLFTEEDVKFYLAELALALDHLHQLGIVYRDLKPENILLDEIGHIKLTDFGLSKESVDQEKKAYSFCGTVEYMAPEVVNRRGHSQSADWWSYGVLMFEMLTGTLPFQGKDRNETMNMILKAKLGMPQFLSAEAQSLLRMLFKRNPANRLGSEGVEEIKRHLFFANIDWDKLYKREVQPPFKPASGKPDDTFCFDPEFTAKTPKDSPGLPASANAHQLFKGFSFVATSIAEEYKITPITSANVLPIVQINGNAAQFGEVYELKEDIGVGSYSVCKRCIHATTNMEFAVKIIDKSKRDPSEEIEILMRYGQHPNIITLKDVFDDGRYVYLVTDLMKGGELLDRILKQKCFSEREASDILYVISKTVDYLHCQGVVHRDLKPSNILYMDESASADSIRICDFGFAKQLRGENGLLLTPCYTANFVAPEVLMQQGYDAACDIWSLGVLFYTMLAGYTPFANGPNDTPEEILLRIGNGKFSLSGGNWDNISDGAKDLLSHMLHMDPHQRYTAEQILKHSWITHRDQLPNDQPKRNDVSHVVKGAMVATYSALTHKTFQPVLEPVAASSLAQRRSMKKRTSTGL", "chain of UniProt P45985 (whole entry, looked up)": "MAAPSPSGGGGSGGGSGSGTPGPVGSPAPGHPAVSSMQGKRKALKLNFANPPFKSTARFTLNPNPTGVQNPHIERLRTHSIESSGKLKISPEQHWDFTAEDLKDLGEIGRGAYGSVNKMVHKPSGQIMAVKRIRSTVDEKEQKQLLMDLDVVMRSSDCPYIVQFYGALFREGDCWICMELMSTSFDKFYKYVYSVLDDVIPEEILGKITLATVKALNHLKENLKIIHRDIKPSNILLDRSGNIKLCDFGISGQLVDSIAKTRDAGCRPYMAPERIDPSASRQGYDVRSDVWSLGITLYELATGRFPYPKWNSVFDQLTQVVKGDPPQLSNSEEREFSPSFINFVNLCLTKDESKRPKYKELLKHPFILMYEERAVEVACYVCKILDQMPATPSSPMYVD", "chain of UniProt Q13873 (whole entry, looked up)": "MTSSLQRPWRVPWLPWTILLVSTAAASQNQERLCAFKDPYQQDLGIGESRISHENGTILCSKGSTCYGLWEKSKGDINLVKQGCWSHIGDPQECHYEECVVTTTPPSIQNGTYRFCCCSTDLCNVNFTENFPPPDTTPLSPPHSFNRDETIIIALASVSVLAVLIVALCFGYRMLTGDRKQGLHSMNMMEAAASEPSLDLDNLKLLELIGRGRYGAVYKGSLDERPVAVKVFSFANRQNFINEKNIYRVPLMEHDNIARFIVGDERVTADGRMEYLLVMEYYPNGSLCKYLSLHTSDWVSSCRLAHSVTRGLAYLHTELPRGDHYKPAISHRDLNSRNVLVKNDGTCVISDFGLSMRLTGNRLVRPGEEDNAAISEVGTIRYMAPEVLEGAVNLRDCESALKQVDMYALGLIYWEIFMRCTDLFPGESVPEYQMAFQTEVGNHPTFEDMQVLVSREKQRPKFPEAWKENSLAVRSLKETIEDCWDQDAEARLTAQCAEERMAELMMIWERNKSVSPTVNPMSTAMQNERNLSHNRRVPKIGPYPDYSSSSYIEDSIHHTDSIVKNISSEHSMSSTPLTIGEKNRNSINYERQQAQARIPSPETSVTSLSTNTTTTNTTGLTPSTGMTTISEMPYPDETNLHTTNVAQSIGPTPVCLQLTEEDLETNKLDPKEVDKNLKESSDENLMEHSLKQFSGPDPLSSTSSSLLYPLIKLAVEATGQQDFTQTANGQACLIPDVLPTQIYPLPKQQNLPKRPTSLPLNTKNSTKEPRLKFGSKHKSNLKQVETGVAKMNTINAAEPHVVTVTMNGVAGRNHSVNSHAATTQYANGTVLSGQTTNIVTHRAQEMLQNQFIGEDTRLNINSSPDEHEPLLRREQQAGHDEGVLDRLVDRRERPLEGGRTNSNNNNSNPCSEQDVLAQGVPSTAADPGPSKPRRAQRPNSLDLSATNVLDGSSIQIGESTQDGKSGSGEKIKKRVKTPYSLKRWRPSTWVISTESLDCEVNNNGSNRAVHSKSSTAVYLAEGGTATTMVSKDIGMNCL", "chain of UniProt Q6ZN16 (whole entry, looked up)": "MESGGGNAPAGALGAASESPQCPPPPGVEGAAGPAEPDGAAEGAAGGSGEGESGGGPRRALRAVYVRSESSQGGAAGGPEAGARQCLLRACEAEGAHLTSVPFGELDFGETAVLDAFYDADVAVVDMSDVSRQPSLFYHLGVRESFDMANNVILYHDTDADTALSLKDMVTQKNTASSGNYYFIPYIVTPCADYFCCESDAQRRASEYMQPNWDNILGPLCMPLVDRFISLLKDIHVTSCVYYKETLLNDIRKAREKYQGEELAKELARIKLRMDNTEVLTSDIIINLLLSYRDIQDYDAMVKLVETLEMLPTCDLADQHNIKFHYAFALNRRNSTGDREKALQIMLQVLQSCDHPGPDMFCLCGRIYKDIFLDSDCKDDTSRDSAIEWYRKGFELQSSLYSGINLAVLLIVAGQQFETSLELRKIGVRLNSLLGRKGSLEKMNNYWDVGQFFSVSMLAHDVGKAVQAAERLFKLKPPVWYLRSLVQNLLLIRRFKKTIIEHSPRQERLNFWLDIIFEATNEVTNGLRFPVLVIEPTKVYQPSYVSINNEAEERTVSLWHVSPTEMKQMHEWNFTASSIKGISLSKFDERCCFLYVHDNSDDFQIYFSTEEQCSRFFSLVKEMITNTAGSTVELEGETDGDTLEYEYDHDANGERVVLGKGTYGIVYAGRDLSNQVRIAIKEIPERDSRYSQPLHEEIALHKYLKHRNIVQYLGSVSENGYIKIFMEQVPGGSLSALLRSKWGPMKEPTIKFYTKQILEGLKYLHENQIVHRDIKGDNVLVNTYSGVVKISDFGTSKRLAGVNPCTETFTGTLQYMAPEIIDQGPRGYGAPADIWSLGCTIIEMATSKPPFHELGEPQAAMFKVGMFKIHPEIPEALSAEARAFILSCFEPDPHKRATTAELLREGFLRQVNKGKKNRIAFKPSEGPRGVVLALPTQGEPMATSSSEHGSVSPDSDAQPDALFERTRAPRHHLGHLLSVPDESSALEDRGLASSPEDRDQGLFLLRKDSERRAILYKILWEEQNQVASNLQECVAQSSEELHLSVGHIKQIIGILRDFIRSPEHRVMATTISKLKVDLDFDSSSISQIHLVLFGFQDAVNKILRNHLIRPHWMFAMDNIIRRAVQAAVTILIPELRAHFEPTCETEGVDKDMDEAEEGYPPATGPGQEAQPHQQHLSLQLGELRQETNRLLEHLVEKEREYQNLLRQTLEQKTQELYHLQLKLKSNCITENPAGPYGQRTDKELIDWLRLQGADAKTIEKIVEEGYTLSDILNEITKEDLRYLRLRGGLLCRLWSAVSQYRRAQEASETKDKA", "chain of UniProt Q02750 (whole entry, looked up)": "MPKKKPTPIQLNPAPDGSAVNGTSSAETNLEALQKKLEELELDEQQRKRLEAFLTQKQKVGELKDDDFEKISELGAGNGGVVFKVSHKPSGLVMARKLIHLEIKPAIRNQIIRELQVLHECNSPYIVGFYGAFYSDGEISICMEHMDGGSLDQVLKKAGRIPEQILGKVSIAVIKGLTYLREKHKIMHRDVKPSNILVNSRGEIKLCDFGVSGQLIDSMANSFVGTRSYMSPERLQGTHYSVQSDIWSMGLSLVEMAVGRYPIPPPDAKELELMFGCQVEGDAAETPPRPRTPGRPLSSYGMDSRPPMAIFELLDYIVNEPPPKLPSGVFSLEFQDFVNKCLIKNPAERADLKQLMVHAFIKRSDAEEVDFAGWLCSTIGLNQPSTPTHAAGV", "chain of UniProt Q8N752 (whole entry, looked up)": "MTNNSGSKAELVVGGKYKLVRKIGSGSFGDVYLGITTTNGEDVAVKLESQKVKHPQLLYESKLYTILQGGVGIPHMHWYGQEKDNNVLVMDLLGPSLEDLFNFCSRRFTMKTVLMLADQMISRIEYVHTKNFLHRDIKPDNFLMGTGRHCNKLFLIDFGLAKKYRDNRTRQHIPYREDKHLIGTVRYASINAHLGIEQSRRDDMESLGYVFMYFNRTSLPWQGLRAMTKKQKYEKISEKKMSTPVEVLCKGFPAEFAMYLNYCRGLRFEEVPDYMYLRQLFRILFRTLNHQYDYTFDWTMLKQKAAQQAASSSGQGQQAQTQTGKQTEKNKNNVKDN"}
{"data": "Block 1", "target": "Interleukin-1 receptor-associated kinase 1 (IRAK1, Homo sapiens, UniProt P51617)", "effect on": "enzyme activity", "action": "inhibitor", "concentration": "0.5 µM", "relative to": "control", "chain of UniProt P51617 (whole entry, looked up)": "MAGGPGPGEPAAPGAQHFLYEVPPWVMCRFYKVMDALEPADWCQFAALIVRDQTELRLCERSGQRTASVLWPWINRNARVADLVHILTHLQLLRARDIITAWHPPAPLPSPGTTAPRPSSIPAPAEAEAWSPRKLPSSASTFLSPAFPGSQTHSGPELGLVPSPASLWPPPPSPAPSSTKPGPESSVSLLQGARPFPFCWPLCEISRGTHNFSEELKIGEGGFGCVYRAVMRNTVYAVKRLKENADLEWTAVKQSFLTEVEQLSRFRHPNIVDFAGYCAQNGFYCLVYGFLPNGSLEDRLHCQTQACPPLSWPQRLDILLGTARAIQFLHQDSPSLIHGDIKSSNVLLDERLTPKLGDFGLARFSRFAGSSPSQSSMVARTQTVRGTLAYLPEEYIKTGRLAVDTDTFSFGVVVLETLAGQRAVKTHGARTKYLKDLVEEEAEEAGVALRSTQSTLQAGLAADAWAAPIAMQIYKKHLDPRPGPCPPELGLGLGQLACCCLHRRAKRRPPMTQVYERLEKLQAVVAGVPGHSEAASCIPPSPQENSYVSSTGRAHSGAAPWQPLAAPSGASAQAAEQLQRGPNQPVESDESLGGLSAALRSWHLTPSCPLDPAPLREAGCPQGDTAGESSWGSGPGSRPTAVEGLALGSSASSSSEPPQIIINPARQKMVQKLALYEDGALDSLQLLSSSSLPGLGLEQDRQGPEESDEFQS"}
{"Structure (SMILES)": "O=C(c1ccccc1)c1ccc(N2CCOCC2)cc1O", "remaining activity": "103%"}
{"Structure (SMILES)": "O=C1c2ccccc2-c2nc3nnnn3nc21", "remaining activity": "77.6%"}
{"Structure (SMILES)": "N#CC(c1ccnc(NCCc2cccnc2)n1)c1nc2ccccc2s1 (stereo not drawn)", "remaining activity": "91.8%"}
{"Structure (SMILES)": "Nc1nc(Nc2ccc(S(N)(=O)=O)cc2)nn1C(=S)Nc1c(F)cccc1F", "remaining activity": "16.9%"}
{"Structure (SMILES)": "COc1cc2c(N3CCN(C(=O)Nc4ccc(OC(C)C)cc4)CC3)ncnc2cc1OCCCN1CCCCC1", "remaining activity": "96.1%"}
{"Structure (SMILES)": "CC(C)(C)c1nc2c3cc[nH]c(=O)c3c3cc(F)ccc3c2[nH]1", "remaining activity": "76.3%"}
{"Structure (SMILES)": "Clc1ccc(Nc2nnc(Cc3ccncc3)c3ccccc23)cc1", "remaining activity": "94.1%"}
{"Structure (SMILES)": "NC(=O)c1cccc(-c2cc(Nc3ccc(OC(F)(F)F)cc3)ncn2)c1", "remaining activity": "101%"}
{"Structure (SMILES)": "FC(F)(F)c1ccc(/C=C/c2nc(COc3ccc(CCCCn4ccnn4)cc3)co2)cc1", "remaining activity": "99.5%"}
{"Structure (SMILES)": "COc1cc2c(Nc3ccc(Br)cc3F)ncnc2cc1OCC1CCN(C)CC1", "remaining activity": "87.7%"}
{"Structure (SMILES)": "c1cc(-c2cnn3cc(-c4ccc(OCCN5CCCCC5)cc4)cnc23)ccn1", "remaining activity": "15.3%"}
{"Structure (SMILES)": "O=C1NC(=O)/C(=C/c2ccc3c(c2)OC(F)(F)O3)S1", "remaining activity": "84.2%"}
{"Structure (SMILES)": "C[C@@H](N)[C@H]1CC[C@H](C(=O)Nc2ccncc2)CC1", "remaining activity": "102%"}
{"Structure (SMILES)": "O=c1c(-c2ccc(F)cc2)c(-c2ccncc2)[nH]n1-c1ccc(Cl)cc1", "remaining activity": "103%"}
{"Structure (SMILES)": "O=C(O)/C=C/c1cc(Br)c(Br)c(Br)c1Br", "remaining activity": "94.4%"}
{"Structure (SMILES)": "O=Nc1c(-c2c(O)[nH]c3ccccc23)[nH]c2ccccc12", "remaining activity": "68.8%"}
{"Structure (SMILES)": "NC(=O)c1ccc(-c2nc(-c3ccc4c(c3)OCCO4)c(-c3ccccn3)[nH]2)cc1", "remaining activity": "96.6%"}
{"Structure (SMILES)": "CC(C)N(CCC(=O)c1ccc2ccccc2c1)Cc1ccccc1", "remaining activity": "102%"}
{"Structure (SMILES)": "CC(C)n1cnc2c(Nc3cccc(Cl)c3)nc(NCCO)nc21", "remaining activity": "101%"}
{"Structure (SMILES)": "CCCCc1c(-c2ccc(O)cc2)[nH]c2nccnc12", "remaining activity": "63.4%"}
{"Structure (SMILES)": "N#C/C(=C(/N)SC1C=CC=CC1)c1cccc(C(O)c2ccncc2)c1 (stereo not drawn)", "remaining activity": "101%"}
{"Structure (SMILES)": "CNc1cc2c(Nc3cccc(Br)c3)ncnc2cn1", "remaining activity": "85.2%"}
{"Structure (SMILES)": "CCN(CC)CCCCN1c2ccccc2Oc2ccc(Cl)cc21", "remaining activity": "118%"}
{"data": "Block 2", "cell line": "HaCaT", "concentration": "100 µM", "time": "18 h"}
{"Structure (SMILES)": "C=C1c2cccc(O)c2C(=O)C2=C(O)[C@]3(O)C(=O)C(C(N)=O)=C(O)[C@@H](N(C)C)[C@@H]3[C@@H](O)[C@H]12", "viability [%]": 111}
{"Structure (SMILES)": "C[C@@H](c1nc(-c2ccc(C#N)cc2)cs1)[C@](O)(Cn1cncn1)c1cc(F)ccc1F", "viability [%]": 30.1}
{"Structure (SMILES)": "c1ccc(Cc2nc3ccccc3[nH]2)cc1", "viability [%]": 98.1}
{"Structure (SMILES)": "NCCS", "viability [%]": 99.2}
{"Structure (SMILES)": "COC(=O)c1ccccc1O", "viability [%]": 97}
{"Structure (SMILES)": "O=c1ccc2ccccc2o1", "viability [%]": 100}
{"Structure (SMILES)": "CN1C[C@@H]2c3ccccc3Oc3ccc(Cl)cc3[C@H]2C1 (racemic)", "viability [%]": 26.4}
{"Structure (SMILES)": "C[C@]12CC[C@@H]3c4ccc(O)cc4C[C@@H](CCCCCCCCC[S+]([O-])CCCC(F)(F)C(F)(F)F)[C@H]3[C@@H]1CC[C@@H]2O (stereo partly drawn)", "viability [%]": 98.6}
{"Structure (SMILES)": "O=C(N/N=C/c1ccc([N+](=O)[O-])o1)c1ccc(O)cc1", "viability [%]": 37.3}
{"Structure (SMILES)": "O=c1c(O[C@@H]2O[C@H](CO)[C@H](O)[C@H](O)[C@H]2O)c(-c2ccc(O)c(O)c2)oc2cc(O)cc(O)c12", "viability [%]": 118}
{"Structure (SMILES)": "C=CC(N)CCC(=O)O (stereo not drawn)", "viability [%]": 93.4}
{"Structure (SMILES)": "OCc1ccc(O[C@@H]2O[C@H](CO)[C@@H](O)[C@H](O)[C@H]2O)cc1", "viability [%]": 111}
{"Structure (SMILES)": "Cc1cc2nc3c(=O)[nH]c(=O)nc-3n(C[C@H](O)[C@H](O)[C@H](O)CO)c2cc1C", "viability [%]": 98.2}
{"Structure (SMILES)": "CCn1cc(C(=O)O)c(=O)c2cc(F)c(N3CCNCC3)cc21", "viability [%]": 114}
{"Structure (SMILES)": "CNC1CCCN(c2c(F)cc3c(=O)c(C(=O)O)cn(C4CC4)c3c2OC)C1 (stereo not drawn)", "viability [%]": 97.7}
{"Structure (SMILES)": "N=C(N)/N=C(\\N)N1CCOCC1", "viability [%]": 114}
{"Structure (SMILES)": "Cc1ccccc1C(=O)Nc1ccc(C(=O)N2CCCC(N(C)C)c3ccccc32)cc1 (stereo not drawn)", "viability [%]": 65.4}
{"Structure (SMILES)": "COc1cc(N)c(Cl)cc1C(=O)N[C@@H]1CCN(CCCOc2ccc(F)cc2)C[C@@H]1OC (racemic)", "viability [%]": 43.6}
{"data": "Block 3", "SMILES": "Cc1c(NC(=O)c2cc(C(N)=O)nc3cc(F)ccc23)c(C(F)(F)F)nn1Cc1ccc(C#N)cc1", "method": "competition with immobilised ligand", "concentration": "1 µM"}
{"target": "Bone morphogenetic protein receptor type-2 (BMPR2, Homo sapiens, UniProt Q13873)", "effect on": "cell-free assay", "remaining binding [%]": 89}
{"target": "Receptor-type tyrosine-protein kinase FLT3 (FLT3, Homo sapiens, UniProt P36888, D835H)", "effect on": "cell-free assay", "remaining binding [%]": 100}
{"target": "Phosphatidylinositol 4,5-bisphosphate 3-kinase catalytic subunit alpha isoform (PIK3CA, Homo sapiens, UniProt P42336, E542K)", "effect on": "cell-free assay", "remaining binding [%]": 84}
{"target": "Serine/threonine-protein kinase 10 (STK10, Homo sapiens, UniProt O94804)", "effect on": "cell-free assay", "remaining binding [%]": 79}
{"target": "Casein kinase I isoform delta (CSNK1D, Homo sapiens, UniProt P48730)", "effect on": "cell-free assay", "remaining binding [%]": 76}
{"target": "MAP kinase-interacting serine/threonine-protein kinase 2 (MKNK2, Homo sapiens, UniProt Q9HBH9)", "effect on": "cell-free assay", "remaining binding [%]": 92}
{"target": "Non-receptor tyrosine-protein kinase TYK2, JH1 (TYK2, Homo sapiens, UniProt P29597)", "effect on": "cell-free assay", "remaining binding [%]": 83}
{"target": "Epidermal growth factor receptor (EGFR, Homo sapiens, UniProt P00533, T790M)", "effect on": "cell-free assay", "remaining binding [%]": 100}
{"target": "Hepatocyte growth factor receptor (MET, Homo sapiens, UniProt P08581, M1250T)", "effect on": "cell-free assay", "remaining binding [%]": 91}
{"target": "Dual specificity mitogen-activated protein kinase kinase 4 (MAP2K4, Homo sapiens, UniProt P45985)", "effect on": "cell-free assay", "remaining binding [%]": 86}
{"target": "Cyclin-dependent kinase 13 (CDK13, Homo sapiens, UniProt Q14004)", "effect on": "cell-free assay", "remaining binding [%]": 87}
{"target": "Dual specificity mitogen-activated protein kinase kinase 1 (MAP2K1, Homo sapiens, UniProt Q02750)", "effect on": "cell-free assay", "remaining binding [%]": 90}
{"target": "Serine/threonine-protein kinase 36 (STK36, Homo sapiens, UniProt Q9NRP7)", "effect on": "cell-free assay", "remaining binding [%]": 100}
{"target": "Bone morphogenetic protein receptor type-1B (BMPR1B, Homo sapiens, UniProt O00238)", "effect on": "cell-free assay", "remaining binding [%]": 77}
{"target": "Ephrin type-A receptor 8 (EPHA8, Homo sapiens, UniProt P29322)", "effect on": "cell-free assay", "remaining binding [%]": 91}
{"target": "Ribosomal protein S6 kinase alpha-6, C-terminal kinase domain (RPS6KA6, Homo sapiens, UniProt Q9UK32)", "effect on": "cell-free assay", "remaining binding [%]": 66}
{"target": "Ribosomal protein S6 kinase alpha-2, N-terminal kinase domain (RPS6KA2, Homo sapiens, UniProt Q15349)", "effect on": "cell-free assay", "remaining binding [%]": 85}
{"target": "Serine/threonine-protein kinase PLK1 (PLK1, Homo sapiens, UniProt P53350)", "effect on": "cell-free assay", "remaining binding [%]": 88}
{"target": "Mitogen-activated protein kinase kinase kinase 15 (MAP3K15, Homo sapiens, UniProt Q6ZN16)", "effect on": "cell-free assay", "remaining binding [%]": 100}
{"target": "Casein kinase I isoform alpha-like (CSNK1A1L, Homo sapiens, UniProt Q8N752)", "effect on": "cell-free assay", "remaining binding [%]": 100}
{"target": "Serine/threonine-protein kinase SBK1 (SBK1, Homo sapiens, UniProt Q52WX2)", "effect on": "cell-free assay", "remaining binding [%]": 75}
{"target": "Tyrosine-protein kinase receptor UFO (AXL, Homo sapiens, UniProt P30530)", "effect on": "binding", "remaining binding [%]": 100}
{"target": "Dual specificity protein kinase TTK (TTK, Homo sapiens, UniProt P33981)", "effect on": "cell-free assay", "remaining binding [%]": 95}
{"target": "Receptor-type tyrosine-protein kinase FLT3, autoinhibited (FLT3, Homo sapiens, UniProt P36888)", "effect on": "cell-free assay", "remaining binding [%]": 83}
{"target": "Tyrosine-protein kinase ABL1, non-phosphorylated (ABL1, Homo sapiens, UniProt P00519, F317L)", "effect on": "cell-free assay", "remaining binding [%]": 88}
{"data": "Block 4", "cell line": "mouse MPNST tumor cells", "method": "high-content nuclear imaging", "item": "cell number", "concentration": "10 µM", "time": "12 h", "setting": "mean of 2 replicates", "relative to": "plate mean", "direction": "higher = more cells"}
{"Compound": "O=C1c2cccc(O)c2C(=O)c2c(O)cccc21", "nuclei count": "0.738 z-score"}
{"Compound": "FCc1ccc(OCCOc2ccc(Cl)cc2Cl)c(Cl)n1", "nuclei count": "0.382 z-score"}
{"Compound": "CCn1c(-c2nonc2N)nc2cncc(CNC3CCNCC3)c21", "nuclei count": "-1.29 z-score"}
{"Compound": "CCN1C(=CC(C)=O)Sc2ccc(O)cc21", "nuclei count": "4.33 z-score"}
{"Compound": "OC(CCCN1CCCCC1)(c1ccccc1)c1ccccc1", "nuclei count": "4.46 z-score and 2.03 z-score"}
{"Compound": "c1ccc([C@@H]2CCC[C@@H]2NC2=NCCCCCCCCCCC2)cc1", "nuclei count": "-6.23 z-score"}
{"Compound": "CC(C)c1ccc2oc3nc(N)c(C(=O)O)cc3c(=O)c2c1", "nuclei count": "0.448 z-score and 0.818 z-score"}
{"Compound": "CCOc1cc(C(=O)Nc2ccc(Cl)c(-c3nc4ccccc4[nH]3)c2)cc(OCC)c1OCC", "nuclei count": "5.19 z-score"}
{"Compound": "CCCc1nc2nc(C)c(NS(=O)(=O)c3ccc(C4CCCCC4)cc3)c(=O)n2[nH]1", "nuclei count": "1.13 z-score"}
{"Compound": "CNNCc1ccc(C(=O)NC(C)C)cc1", "nuclei count": "1.39 z-score and 1.29 z-score"}
{"Compound": "CCCn1c(=O)[nH]c2nc(-c3ccc(S(=O)(=O)N4CCN(Cc5ccc(Cl)cc5)CC4)cc3)[nH]c2c1=O", "nuclei count": "0.463 z-score"}
{"Compound": "c1ccc(Oc2nc(NC3CCCCC3)c3[nH]cnc3n2)cc1", "nuclei count": "-1.3 z-score"}
{"note": "Repeated from above (block 3):"}
{"target": "Bone morphogenetic protein receptor type-2 (BMPR2, Homo sapiens, UniProt Q13873)", "effect on": "cell-free assay", "remaining binding [%]": 89}
{"target": "Dual specificity mitogen-activated protein kinase kinase 4 (MAP2K4, Homo sapiens, UniProt P45985)", "effect on": "cell-free assay", "remaining binding [%]": 86}
{"target": "Mitogen-activated protein kinase kinase kinase 15 (MAP3K15, Homo sapiens, UniProt Q6ZN16)", "effect on": "cell-free assay", "remaining binding [%]": 100}
{"target": "Ribosomal protein S6 kinase alpha-2, N-terminal kinase domain (RPS6KA2, Homo sapiens, UniProt Q15349)", "effect on": "cell-free assay", "remaining binding [%]": 85}
{"target": "Phosphatidylinositol 4,5-bisphosphate 3-kinase catalytic subunit alpha isoform (PIK3CA, Homo sapiens, UniProt P42336, E542K)", "effect on": "cell-free assay", "remaining binding [%]": 84}
{"target": "Tyrosine-protein kinase receptor UFO (AXL, Homo sapiens, UniProt P30530)", "effect on": "binding", "remaining binding [%]": 100}
{"target": "Tyrosine-protein kinase ABL1, non-phosphorylated (ABL1, Homo sapiens, UniProt P00519, F317L)", "effect on": "cell-free assay", "remaining binding [%]": 88}
{"target": "Cyclin-dependent kinase 13 (CDK13, Homo sapiens, UniProt Q14004)", "effect on": "cell-free assay", "remaining binding [%]": 87}
{"target": "Serine/threonine-protein kinase SBK1 (SBK1, Homo sapiens, UniProt Q52WX2)", "effect on": "cell-free assay", "remaining binding [%]": 75}
